Literature values as cited in several papers.
Numbered parts are unrelated; values within a part may stem from several laboratories. pEC50, pIC50, pKd, pKi: −log10 of the molar value.
Sequence of UniProt Q5BJF2 (whole entry, looked up): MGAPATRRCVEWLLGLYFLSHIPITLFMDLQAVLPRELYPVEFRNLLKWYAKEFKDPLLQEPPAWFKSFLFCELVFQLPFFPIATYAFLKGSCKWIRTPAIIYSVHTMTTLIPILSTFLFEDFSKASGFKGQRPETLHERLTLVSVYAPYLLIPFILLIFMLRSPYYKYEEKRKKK
Sequence of UniProt O00750 (whole entry, looked up): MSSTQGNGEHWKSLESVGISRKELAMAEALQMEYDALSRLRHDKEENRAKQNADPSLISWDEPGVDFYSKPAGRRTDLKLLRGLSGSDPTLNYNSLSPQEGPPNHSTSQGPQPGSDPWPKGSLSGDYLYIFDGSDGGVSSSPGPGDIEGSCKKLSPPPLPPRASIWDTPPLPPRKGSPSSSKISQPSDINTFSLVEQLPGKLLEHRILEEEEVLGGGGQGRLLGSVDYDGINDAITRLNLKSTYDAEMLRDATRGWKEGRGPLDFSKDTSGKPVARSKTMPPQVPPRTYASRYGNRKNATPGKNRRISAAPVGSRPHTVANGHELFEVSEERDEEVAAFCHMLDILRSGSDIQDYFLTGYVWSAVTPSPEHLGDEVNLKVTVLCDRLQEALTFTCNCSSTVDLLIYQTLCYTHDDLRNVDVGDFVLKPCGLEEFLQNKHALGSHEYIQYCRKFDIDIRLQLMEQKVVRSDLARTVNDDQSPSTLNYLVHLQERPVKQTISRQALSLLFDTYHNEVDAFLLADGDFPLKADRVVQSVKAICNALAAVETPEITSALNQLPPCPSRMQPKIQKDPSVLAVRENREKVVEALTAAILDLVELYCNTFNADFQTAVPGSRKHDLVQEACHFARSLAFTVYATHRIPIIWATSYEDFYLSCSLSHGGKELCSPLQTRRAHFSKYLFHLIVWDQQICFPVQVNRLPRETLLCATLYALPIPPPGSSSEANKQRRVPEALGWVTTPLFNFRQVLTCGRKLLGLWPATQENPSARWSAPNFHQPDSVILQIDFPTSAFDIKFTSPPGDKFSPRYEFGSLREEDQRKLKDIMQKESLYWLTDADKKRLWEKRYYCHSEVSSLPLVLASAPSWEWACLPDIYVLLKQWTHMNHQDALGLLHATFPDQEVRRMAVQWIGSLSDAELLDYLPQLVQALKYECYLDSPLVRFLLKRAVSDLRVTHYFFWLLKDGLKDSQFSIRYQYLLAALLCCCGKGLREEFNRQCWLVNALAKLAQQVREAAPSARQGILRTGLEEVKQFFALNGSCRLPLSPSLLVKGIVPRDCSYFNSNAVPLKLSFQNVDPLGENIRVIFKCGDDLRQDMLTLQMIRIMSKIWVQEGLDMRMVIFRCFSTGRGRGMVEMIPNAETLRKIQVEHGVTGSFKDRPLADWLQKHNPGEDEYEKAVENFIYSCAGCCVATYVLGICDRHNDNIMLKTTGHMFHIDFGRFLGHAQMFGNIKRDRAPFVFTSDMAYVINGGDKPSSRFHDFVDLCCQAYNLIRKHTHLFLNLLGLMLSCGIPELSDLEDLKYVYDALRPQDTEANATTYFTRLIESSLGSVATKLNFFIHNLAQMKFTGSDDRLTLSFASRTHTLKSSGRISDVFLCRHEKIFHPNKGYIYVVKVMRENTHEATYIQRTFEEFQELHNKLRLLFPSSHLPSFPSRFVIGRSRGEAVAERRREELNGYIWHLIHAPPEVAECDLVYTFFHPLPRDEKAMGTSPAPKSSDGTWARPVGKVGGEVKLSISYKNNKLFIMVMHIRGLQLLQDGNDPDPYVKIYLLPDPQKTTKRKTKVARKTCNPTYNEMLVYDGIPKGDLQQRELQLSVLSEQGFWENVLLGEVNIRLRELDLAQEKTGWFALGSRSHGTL

Study 1 — organism: Plasmodium falciparum; concentration: concentration not given
Under activity, `O=c1c2ccccc2[se]n1-c1ccccc1` is recorded as “active”.
Under activity, `Br.COc1ccc2c(c1)[C@]13CCCC[C@@H]1[C@H](C2)N(C)CC3` is recorded as “active”.
For `CC(C)N(CCC(C(N)=O)(c1ccccc1)c1ccccn1)C(C)C` (stereo not drawn), activity read “active”.
`CC(NC(C)(C)C)C(=O)c1cccc(Cl)c1` (stereo not drawn): activity “active”.
`COC(=O)N1CCN(C(=O)Cc2ccc(Cl)c(Cl)c2)C(CN2CCCC2)C1.O=C(O)/C=C/C(=O)O` (stereo not drawn) — result for activity: “active”.
Under activity, `O=C(O)CCCc1ccc(N(CCCl)CCCl)cc1` is recorded as “active”.
`CN1CC[C@@]23CCCC[C@@H]2[C@@H]1Cc1ccc(O)cc13.O=C(O)C(O)C(O)C(=O)O` — result for activity: “active”.
`Oc1cc(Cl)ccc1Oc1ccc(Cl)cc1Cl`: activity “active”.
`CNC1CC(c2ccc(Cl)c(Cl)c2)c2ccccc21` (stereo not drawn): activity “active”.

Mixed results
For `Nc1ccc(C(=O)O)cc1`, the LD50 was > 2000 mg/kg (dogs and rats).
`COC(=O)C1=CO[C@@H](O[C@@H]2O[C@H](CO)[C@@H](O)[C@H](O)[C@H]2O)[C@@H]2[C@@H](C)[C@@H](O)C[C@H]12` has a pIC50 of 4.48 (BChE; inhibitor).
For `OCCN1CCN(CCC=C2c3ccccc3Sc3ccc(C(F)(F)F)cc32)CC1`, “log2 fold change” read 0.99 (MCF7; microarray, item: SLC7A11 mRNA; concentration not given; relative to: DMSO).
For `O=c1ccc2ncc(=O)n3c2n1C[C@H]3CN1CCC(NCc2cc3c(cn2)OCCC3)CC1`, “parent share of radioactivity AUC(0-inf)” read 63% (plasma; intravenous, concentration not given, single dose 14C-labelled).
The pEC50 of `Cc1c(S(=O)(=O)N2CCc3[nH]ncc3C2)cc(C(=O)NCc2c(F)ccc3occc23)n1C` is reported as ~8.00 (coronaviruses; antiviral activity).
`Nc1ncc(-c2nc(N3CCOCC3)nc(N3CCOCC3)n2)c(C(F)F)n1` gave a remaining binding of 0.75% (PIK3C2B (Homo sapiens, UniProt O00750); KinomeScan competition binding; 10 µM).
`CCCCN1CCC(COC(=O)c2ccc(N)c(OC)c2)CC1` [carbon-11 labelled] gave a pKi of 6.83 (TMEM97 (Homo sapiens, UniProt Q5BJF2)).
With `O=C(O)CCCc1ccc(N(CCCl)CCCl)cc1` the solubility was < 1000 µg/mL (water).
For `C[C@H](CCCC(C)(C)O)[C@H]1CC[C@H]2[C@@H]3CC=C4C[C@@H](O)CC[C@]4(C)[C@H]3CC[C@]12C`, the pKd was 5.41 (ORP2; binding).

Excerpt of the above (study 1):
`CC(NC(C)(C)C)C(=O)c1cccc(Cl)c1` (stereo not drawn): activity “active”.
`Oc1cc(Cl)ccc1Oc1ccc(Cl)cc1Cl`: activity “active”.
`CNC1CC(c2ccc(Cl)c(Cl)c2)c2ccccc21` (stereo not drawn): activity “active”.
